# Assay results pooled from the literature.
# Several values in a cell are separate wells, animals, samples, runs or records. ± gives the spread as reported.
# PTGES3: PTGES3 (Homo sapiens, UniProt Q15185)
# Sequence of UniProt Q15185 (whole entry, looked up): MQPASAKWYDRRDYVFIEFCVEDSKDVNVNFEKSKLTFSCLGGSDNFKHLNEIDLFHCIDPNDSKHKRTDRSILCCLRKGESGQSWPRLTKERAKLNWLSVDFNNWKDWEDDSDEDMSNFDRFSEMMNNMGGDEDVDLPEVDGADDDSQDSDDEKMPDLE
# T1: xseA/xseB 1-456;1-80 H238A (Escherichia coli); chain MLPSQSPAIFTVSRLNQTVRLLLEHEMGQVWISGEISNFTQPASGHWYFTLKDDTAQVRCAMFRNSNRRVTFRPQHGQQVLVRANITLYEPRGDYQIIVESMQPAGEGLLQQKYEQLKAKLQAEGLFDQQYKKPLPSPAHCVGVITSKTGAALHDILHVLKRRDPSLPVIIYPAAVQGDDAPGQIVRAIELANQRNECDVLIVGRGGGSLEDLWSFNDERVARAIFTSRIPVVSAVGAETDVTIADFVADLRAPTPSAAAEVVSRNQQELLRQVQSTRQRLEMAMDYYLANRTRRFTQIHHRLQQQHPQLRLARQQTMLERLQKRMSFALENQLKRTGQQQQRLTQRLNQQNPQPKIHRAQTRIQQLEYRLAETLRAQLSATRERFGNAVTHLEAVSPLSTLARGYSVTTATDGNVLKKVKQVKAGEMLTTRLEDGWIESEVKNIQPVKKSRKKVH; chain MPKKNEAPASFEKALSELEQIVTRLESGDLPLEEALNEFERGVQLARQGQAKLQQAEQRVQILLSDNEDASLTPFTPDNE
# B1: SIRT5 R105A (Homo sapiens, UniProt Q9NXA8); chain ARPSSSMADFRKFFAKAKHIVIISGAGVSAESGVPTFRGAGGYWRKWQAQDLATPLAFAHNPSRVWEFYHYAREVMGSKEPNAGHRAIAECETRLGKQGRRVVVITQNIDELHRKAGTKNLLEIHGSLFKTRCTSCGVVAENYKSPICPALSGKGAPEPGTQDASIPVEKLPRCEEAGCGGLLRPHVVWFGENLDPAILEEVDRELAHCDLCLVVGTSSVVYPAAMFAPQVAARGVPVAEFNTETTPATNRFRFHFQGPCGTTLPEALA
# B2: ABCC3 (Homo sapiens, UniProt O15438); chain MDALCGSGELGSKFWDSNLSVHTENPDLTPCFQNSLLAWVPCIYLWVALPCYLLYLRHHCRGYIILSHLSKLKMVLGVLLWCVSWADLFYSFHGLVHGRAPAPVFFVTPLVVGVTMLLATLLIQYERLQGVQSSGVLIIFWFLCVVCAIVPFRSKILLAKAEGEISDPFRFTTFYIHFALVLSALILACFREKPPFFSAKNVDPNPYPETSAGFLSRLFFWWFTKMAIYGYRHPLEEKDLWSLKEEDRSQMVVQQLLEAWRKQEKQTARHKASAAPGKNASGEDEVLLGARPRPRKPSFLKALLATFGSSFLISACFKLIQDLLSFINPQLLSILIRFISNPMAPSWWGFLVAGLMFLCSMMQSLILQHYYHYIFVTGVKFRTGIMGVIYRKALVITNSVKRASTVGEIVNLMSVDAQRFMDLAPFLNLLWSAPLQIILAIYFLWQNLGPSVLAGVAFMVLLIPLNGAVAVKMRAFQVKQMKLKDSRIKLMSEILNGIKVLKLYAWEPSFLKQVEGIRQGELQLLRTAAYLHTTTTFTWMCSPFLVTLITLWVYVYVDPNNVLDAEKAFVSVSLFNILRLPLNMLPQLISNLTQASVSLKRIQQFLSQEELDPQSVERKTISPGYAITIHSGTFTWAQDLPPTLHSLDIQVPKGALVAVVGPVGCGKSSLVSALLGEMEKLEGKVHMKGSVAYVPQQAWIQNCTLQENVLFGKALNPKRYQQTLEACALLADLEMLPGGDQTEIGEKGINLSGGQRQRVSLARAVYSDADIFLLDDPLSAVDSHVAKHIFDHVIGPEGVLAGKTRVLVTHGISFLPQTDFIIVLADGQVSEMGPYPALLQRNGSFANFLCNYAPDEDQGHLEDSWTALEGAEDKEALLIEDTLSNHTDLTDNDPVTYVVQKQFMRQLSALSSDGEGQGRPVPRRHLGPSEKVQVTEAKADGALTQEEKAAIGTVELSVFWDYAKAVGLCTTLAICLLYVGQSAAAIGANVWLSAWTNDAMADSRQNNTSLRLGVYAALGILQGFLVMLAAMAMAAGGIQAARVLHQALLHNKIRSPQSFFDTTPSGRILNCFSKDIYVVDEVLAPVILMLLNSFFNAISTLVVIMASTPLFTVVILPLAVLYTLVQRFYAATSRQLKRLESVSRSPIYSHFSETVTGASVIRAYNRSRDFEIISDTKVDANQRSCYPYIISNRWLSIGVEFVGNCVVLFAALFAVIGRSSLNPGLVGLSVSYSLQVTFALNWMIRMMSDLESNIVAVERVKEYSKTETEAPWVVEGSRPPEGWPPRGEVEFRNYSVRYRPGLDLVLRDLSLHVHGGEKVGIVGRTGAGKSSMTLCLFRILEAAKGEIRIDGLNVADIGLHDLRSQLTIIPQDPILFSGTLRMNLDPFGSYSEEDIWWALELSHLHTFVSSQPAGLDFQCSEGGENLSVGQRQLVCLARALLRKSRILVLDEATAAIDLETDNLIQATIRTQFDTCTVLTIAHRLNTIMDYTRVLVLDKGVVAEFDSPANLIAARGIFYGMARDAGLA
Substance,tested on,test,test system,setting,quantity,result
GGATGGGACGTGGGC (ssDNA),"T1, xseA/xseB 1-456;1-80 H238A (Escherichia coli)",fluorescence anisotropy,single-stranded DNA,,binding,binds
GATCAGACAGGAG (dsDNA),PTGES3,HDX-MS,"double-stranded DNA, one strand shown",,binding,binds
CCCC[C@H](NC(=O)CCCCCCCNC(=O)CN1CCN(CC(=O)O)CCN(CC(=O)O)CC1)C(=O)N[C@H]1CC(=O)NCCCC[C@@H](C(N)=O)NC(=O)[C@H](Cc2c[nH]c3ccccc23)NC(=O)[C@H](CCCNC(=N)N)NC(=O)[C@@H](Cc2ccccc2)NC(=O)[C@H](Cc2c[nH]cn2)NC1=O [technetium-99m labelled],,,"C57 mouse, intestine","intravenous, 0.037 MBq, 24 h",tissue uptake,1.48 ± 0.97 %ID
CC(C)C[C@@H](NC(=O)[C@@H](CC(C)C)NC(=O)[C@@H](CC(=O)O)NC(=O)[C@@H](CC(C)C)NC(=O)[C@@H](CC(C)C)NC(=O)[C@@H](CC(C)C)NC(=O)[C@H](NC(=O)[C@@H](CC(=O)O)NC(=O)[C@H](NC(=O)[C@H]1CCCN1C(=O)[C@@H](Cc1ccccc1)NC(=O)[C@@H](CC(C)C)NC(=O)[C@@H](CC(C)C)NC(=O)[C@@H](CC(=O)O)NC(=O)[C@@H](CC(C)C)NC(=O)[C@@H](Cc1ccc(O)cc1)NC(=O)[C@@H](C)NC(=O)[C@@H](CCCNC(=N)N)NC(=O)[C@@H](Cc1c[nH]c2ccccc12)NC(=O)[C@H]1CCCN1C(=O)[C@@H](CC(N)=O)NC(=O)[C@@H](CCC(N)=O)NC(=O)[C@@H](CC(=O)O)NC(=O)[C@@H](CC(=O)O)NC(=O)[C@@H](CSC1CC(=O)N(CCNC(=O)CN2CCN(CC(=O)O)CCN(CC(=O)O)CC2)C1=O)NC(=O)[C@@H](C)N)[C@H](C)O)[C@H](C)O)C(=O)N[C@H](Cc1c[nH]c2ccccc12)C(=O)O (stereo partly drawn) [fluorine-18 labelled],,,"male nude mice, PC-3 xenograft, tumor","intravenous, 1 h",tissue uptake,3.05 %ID/g
B1 (SIRT5 R105A),CSCC[C@H](NC(=O)[C@H](CC(C)C)NC(=O)[C@H](CCCCNC(C)=O)NC(=O)[C@H](CCCCN)NC(=O)[C@H](Cc1c[nH]cn1)NC(=O)[C@H](CCCNC(=N)N)NC(=O)[C@H](CO)NC(=O)[C@@H](NC(=O)[C@H](CO)NC(=O)[C@H](CCC(N)=O)NC(=O)CNC(=O)[C@H](CCCCN)NC(=O)[C@@H](N)CCCCN)[C@@H](C)O)C(=O)N[C@@H](Cc1ccccc1)C(=O)N[C@@H](CCCCN)C(=O)N[C@H](C(=O)N[C@@H](CCC(=O)O)C(=O)NCC(=O)O)[C@@H](C)O,steady-state kinetics,,"pH 7.5, 37 °C, added: saturating NAD+",Km,832 µM
C[C@@H](O)[C@@H]1NC(=O)[C@H](CCCCN)NC(=O)[C@@H](Cc2c[nH]c3ccccc23)NC(=O)[C@H](Cc2ccc(O)cc2)NC(=O)[C@@H](NC(=O)[C@@H](Cc2ccccc2)NC(=O)CN2CCN(CC(=O)O)CCN(CC(=O)O)CCN(CC(=O)O)CC2)CSSC[C@@H](C(=O)N[C@H](CO)[C@@H](C)O)NC1=O [gallium-67 labelled],,gamma counting,"ICR mice, male, blood","iv, 11 kBq/mouse, 3 h",tissue uptake,0.09 ± 0.01 %ID/g
CCGGACCTCAGGGCCGCTCAGATTCCTGGAGAGGAAGCCAAGTGTCCTTCTGCCCTC (dsDNA),PTGES3,EMSA,"double-stranded DNA, one strand shown",,binding,no binding
B2 (ABCC3),O=C(c1ccc(OCCN2CCCCC2)cc1)c1c(-c2ccc(O[C@@H]3O[C@H](C(=O)O)[C@@H](O)[C@H](O)[C@H]3O)cc2)sc2cc(O[C@@H]3O[C@H](C(=O)O)[C@@H](O)[C@H](O)[C@H]3O)ccc12,steady-state kinetics,Sf9 vesicles,"pH 7, 37 °C, not purified, added: ATP",Km,42.5 µM
CCCC[C@H](NC(=O)COCCOCCNC(=O)CN1CCN(CC(=O)O)CCN(CC(=O)O)CC1)C(=O)N[C@H]1CC(=O)NCCCC[C@@H](C(N)=O)NC(=O)[C@H](Cc2c[nH]c3ccccc23)NC(=O)[C@H](CCCNC(=N)N)NC(=O)[C@@H](Cc2ccccc2)NC(=O)[C@H](Cc2c[nH]cn2)NC1=O [technetium-99m labelled],,,"C57 mouse, brain","intravenous, 0.037 MBq, 2 h",tissue uptake,0.03 ± 0.01 %ID/g
CC(C)C[C@H](NC(=O)[C@@H](CCCCNC(=O)[C@@H](Cc1ccccc1)NC(=O)CCCCCNC(=O)CN1CCN(CC(=O)O)CCN(CC(=O)O)CCN(CC(=O)O)CC1)NC(=O)[C@H](Cc1ccc(O)cc1)NC(=O)[C@H](CO)NC(=O)[C@H](Cc1c[nH]c2ccccc12)NC(=O)[C@H](Cc1c[nH]cn1)NC(=O)[C@@H]1CCC(=O)N1)C(=O)N[C@@H](CCCNC(=N)N)C(=O)N1CCC[C@H]1C(=O)NCC(N)=O [indium-111 labelled],,,"female athymic nude mice, kidneys","intravenous, 0.037 MBq, 2 h",tissue uptake,7.58 ± 1.1 %ID/g
C=C1CC[C@H](OCCCNC(=O)CCOCCOCCOCCOCCOCCOCCOCCOCCOCCOCCOCCOCCOCCOCCOCCOCCOCCOCCOCCOCCOCCOCCOCCOCCOCCOCCOCCOCCOCCOCCOCCOCCOCCOCCOCCOCCNC(=O)CCN2C(=O)CC(SC[C@H](NC(=O)[C@H](Cc3ccccc3)NC(=O)[C@H](CC(N)=O)NC(=O)[C@H](Cc3c[nH]cn3)NC(=O)[C@@H](NC(=O)[C@H](CC(=O)O)NC(=O)[C@H](CCC(N)=O)NC(=O)[C@H](CC(C)C)NC(=O)[C@H](CCCCN)NC(=O)[C@H](CCCCN)NC(=O)[C@H](CCCNC(=N)N)NC(=O)[C@H](CC(C)C)NC(=O)[C@H](Cc3c[nH]c4ccccc34)NC(=O)[C@H](CCC(=O)O)NC(=O)[C@@H](NC(=O)[C@H](CCCNC(=N)N)NC(=O)[C@H](CCC(=O)O)NC(=O)[C@H](CCSC)NC(=O)[C@H](CO)NC(=O)[C@H](CC(N)=O)NC(=O)[C@H](CC(C)C)NC(=O)[C@H](Cc3c[nH]cn3)NC(=O)[C@H](CCCCN)NC(=O)CNC(=O)[C@H](CC(C)C)NC(=O)[C@H](CC(N)=O)NC(=O)[C@H](Cc3c[nH]cn3)NC(=O)[C@H](CCSC)NC(=O)[C@H](CC(C)C)NC(=O)[C@H](CCC(N)=O)NC(=O)[C@@H](NC(=O)[C@H](CCC(=O)O)NC(=O)[C@H](CO)NC(=O)[C@@H](NC(=O)[C@@H](N)CO)C(C)C)[C@@H](C)CC)C(C)C)C(C)C)C(=O)O)C2=O)C/C1=C/C=C1\CCC[C@]2(C)[C@@H]([C@H](C)CCCC(C)(C)O)CC[C@@H]12 (stereo partly drawn),,,"male Sprague-Dawley rat, plasma","intravenous, 100 µg/kg, single dose",clearance,0.402 mL/min/kg
CC(C)C[C@H](NC(=O)[C@H](Cc1ccc(O)cc1)NC(=O)[C@@H](CCCNC(=N)N)NC(=O)[C@@H](CO)NC(=O)[C@H](Cc1ccccc1)NC(=O)[C@H](CC1CCCCC1)NC(=O)[C@H](CC(=O)O)NC(=O)CN1CCN(CC(=O)O)CCN(CC(=O)O)CCN(CC(=O)O)CC1)C(=O)N[C@@H](Cc1c[nH]c2ccccc12)C(=O)N[C@@H](CO)C(=O)O [copper-64 labelled],,,"human, kidney","concentration not given, 3 h",activity concentration,8590 Bq/mL and 6840 Bq/mL and 7000 Bq/mL and 5310 Bq/mL and 5630 Bq/mL and 4950 Bq/mL
